Experimental data gathered from unrelated publications.
Every numbered part comes from another study and shows a few of its results, in no order. “And” joins repeats or separate records; there may be more than shown. pEC50: −log10 of the molar value.
Sequence of UniProt P31751 (whole entry, looked up): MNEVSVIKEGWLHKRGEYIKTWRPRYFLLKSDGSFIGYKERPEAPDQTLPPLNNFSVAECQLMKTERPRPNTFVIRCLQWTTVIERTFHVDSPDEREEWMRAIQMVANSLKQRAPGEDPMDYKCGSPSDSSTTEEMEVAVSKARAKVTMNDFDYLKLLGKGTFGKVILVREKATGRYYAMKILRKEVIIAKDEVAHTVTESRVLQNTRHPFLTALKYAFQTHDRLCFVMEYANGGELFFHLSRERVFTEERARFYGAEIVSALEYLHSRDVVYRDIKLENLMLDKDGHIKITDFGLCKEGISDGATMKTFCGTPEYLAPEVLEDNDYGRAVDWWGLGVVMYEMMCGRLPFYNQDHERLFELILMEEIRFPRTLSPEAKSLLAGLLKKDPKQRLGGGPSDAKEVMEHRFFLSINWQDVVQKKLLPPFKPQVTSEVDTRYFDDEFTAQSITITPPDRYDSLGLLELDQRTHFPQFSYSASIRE

Study 1
SMILES: CC(C)(C(=O)O)[C@H](NC(=O)Cc1cccc(I)c1)c1ccc2oc(=O)[nH]c2c1
Method: Incucyte 3D growth
Concentration: 30 µM
Direction: higher = more growth
Quantity: spheroid area
PC-9; 48 h: 4.07e+08 a.u. and 3.91e+08 a.u. and 4.28e+08 a.u. and 4.09e+08 a.u. and 4.01e+08 a.u. and 4.04e+08 a.u.
A375; 414.52 h: 1.6e+08 a.u. and 1.83e+08 a.u. and 1.51e+08 a.u. and 1.71e+08 a.u. and 1.65e+08 a.u. and 1.8e+08 a.u.
PC-9; 24 h: 2.9e+08 a.u. and 2.98e+08 a.u. and 2.97e+08 a.u. and 3.23e+08 a.u. and 3.05e+08 a.u. and 3.01e+08 a.u.
IPC-298; 6 h: 1.72e+07 a.u. and 1.64e+07 a.u. and 1.67e+07 a.u. and 1.46e+07 a.u. and 1.55e+07 a.u. and 1.81e+07 a.u.
NCI-H358; 276 h: 1.2e+07 a.u. and 1.22e+07 a.u. and 1.05e+07 a.u. and 1.19e+07 a.u. and 1.33e+07 a.u.
MEL-JUSO; 378.52 h: 3.94e+07 a.u. and 4.18e+07 a.u. and 3.88e+07 a.u. and 5.84e+07 a.u. and 4.93e+07 a.u. and 3.45e+07 a.u.
NCI-H1437; 48 h: 3e+07 a.u. and 2.66e+07 a.u. and 1.69e+07 a.u. and 1.82e+07 a.u. and 2.12e+07 a.u.

Study 2
Structure (SMILES): COc1ccc(-c2c(Nc3ccccn3)[nH]c3c(C4=CCCCC4)c(-c4ccccc4)nn3c2=O)cc1
Medium: plasma
Route: oral
Quantity: plasma concentration, mean
LC-MS/MS; human; 200 mg twice daily, 24 h, single dose: 1100 ng/mL
human patients; 150 mg once daily, 3 h, cycle 1: 5610 ng/mL
cancer patients; 50 mg, 48 h post-dose, single dose: 84.1 ng/mL
cancer patients; 150 mg, 4 h post-dose, single dose: 1340 ng/mL
cancer patients; 400 mg, 3 h post-dose, single dose: 1100 ng/mL
LC-MS/MS; human; 200 mg twice daily, 8 h, single dose: 1510 ng/mL
cancer patients; 150 mg, 6 h post-dose, single dose: 1310 ng/mL
cancer patients; 400 mg, 2 h post-dose, single dose: 885 ng/mL

Study 3
SMILES: CC(C)(C)c1cnc(CSc2cnc(NC(=O)C3CCN(CCCCCCCCSc4cccc5c4CN(C4CCC(=O)NC4=O)C5=O)CC3)s2)o1 (stereo not drawn)
Quantity: viability
HH; CCK-8; 250 nM: 0%
HuT78; cell growth or viability, trypan blue; 10 nM, 48 h: 98.3%
HH; CCK-8; 500 nM: 0%
HuT78; trypan blue exclusion; 10 nM, 48 h; relative to: untreated control: 95.9% and 95.2%
HuT78; trypan blue exclusion; 250 nM, 48 h; relative to: untreated control: 25% and 27.8%
HH; CCK-8; 200 nM: 0%
HuT78; cell growth or viability, trypan blue; 1 nM, 48 h: 99.8%
HuT78; trypan blue exclusion; 50 nM, 48 h; relative to: untreated control: 87.4% and 81.3%

Further values, each from its own experiment
C=CC(=O)Nc1ccc2[nH]c(=O)n(C3CCN(Cc4ccc(-c5ccc6c(c5)NC(=O)CO6)cc4)CC3)c2c1  pEC50 (RAC-beta serine/threonine-protein kinase (AKT2, Homo sapiens, UniProt P31751); target engagement in cells, BRET): 5.32

Some of these lines once more (further values, each from its own experiment):
C=CC(=O)Nc1ccc2[nH]c(=O)n(C3CCN(Cc4ccc(-c5ccc6c(c5)NC(=O)CO6)cc4)CC3)c2c1  pEC50 (RAC-beta serine/threonine-protein kinase (AKT2, Homo sapiens, UniProt P31751); target engagement in cells, BRET): 5.32
